# Measured values gathered from unrelated publications.
# Parts stem from different laboratories: compare values within a part only.
# UniProt O60285, sequence (whole entry, looked up): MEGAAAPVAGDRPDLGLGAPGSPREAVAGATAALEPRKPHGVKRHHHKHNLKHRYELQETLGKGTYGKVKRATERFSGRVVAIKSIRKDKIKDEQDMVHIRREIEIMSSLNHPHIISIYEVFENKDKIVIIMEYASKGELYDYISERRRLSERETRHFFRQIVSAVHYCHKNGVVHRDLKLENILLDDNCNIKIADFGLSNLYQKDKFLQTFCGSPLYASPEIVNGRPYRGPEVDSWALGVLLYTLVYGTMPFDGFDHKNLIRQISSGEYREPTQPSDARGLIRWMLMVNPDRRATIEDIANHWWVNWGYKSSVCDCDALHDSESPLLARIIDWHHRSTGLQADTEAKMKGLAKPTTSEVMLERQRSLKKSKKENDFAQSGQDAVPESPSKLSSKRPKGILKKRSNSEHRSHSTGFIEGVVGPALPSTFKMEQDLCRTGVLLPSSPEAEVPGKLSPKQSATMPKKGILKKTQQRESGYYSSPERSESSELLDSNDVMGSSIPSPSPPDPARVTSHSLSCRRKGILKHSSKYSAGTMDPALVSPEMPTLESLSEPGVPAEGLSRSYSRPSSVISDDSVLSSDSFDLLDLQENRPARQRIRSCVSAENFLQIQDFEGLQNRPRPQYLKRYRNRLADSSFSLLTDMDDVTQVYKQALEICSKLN
# UniProt Q9H1R3, sequence (whole entry, looked up): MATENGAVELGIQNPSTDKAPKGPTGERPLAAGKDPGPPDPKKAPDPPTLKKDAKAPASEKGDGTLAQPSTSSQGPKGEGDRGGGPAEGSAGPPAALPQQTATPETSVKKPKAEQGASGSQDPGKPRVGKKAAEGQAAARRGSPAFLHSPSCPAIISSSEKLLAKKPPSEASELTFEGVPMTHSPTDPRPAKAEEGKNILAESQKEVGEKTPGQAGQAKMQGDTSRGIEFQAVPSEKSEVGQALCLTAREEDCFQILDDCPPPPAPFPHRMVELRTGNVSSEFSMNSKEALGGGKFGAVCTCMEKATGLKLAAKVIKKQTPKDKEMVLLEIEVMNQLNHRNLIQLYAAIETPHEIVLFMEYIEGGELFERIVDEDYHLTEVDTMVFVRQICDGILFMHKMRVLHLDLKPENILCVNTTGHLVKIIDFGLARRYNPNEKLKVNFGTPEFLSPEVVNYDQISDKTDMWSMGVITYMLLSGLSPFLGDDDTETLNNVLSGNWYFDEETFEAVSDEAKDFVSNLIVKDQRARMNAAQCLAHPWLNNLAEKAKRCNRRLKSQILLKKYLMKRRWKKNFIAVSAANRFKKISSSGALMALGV
# UniProt P42681, sequence (whole entry, looked up): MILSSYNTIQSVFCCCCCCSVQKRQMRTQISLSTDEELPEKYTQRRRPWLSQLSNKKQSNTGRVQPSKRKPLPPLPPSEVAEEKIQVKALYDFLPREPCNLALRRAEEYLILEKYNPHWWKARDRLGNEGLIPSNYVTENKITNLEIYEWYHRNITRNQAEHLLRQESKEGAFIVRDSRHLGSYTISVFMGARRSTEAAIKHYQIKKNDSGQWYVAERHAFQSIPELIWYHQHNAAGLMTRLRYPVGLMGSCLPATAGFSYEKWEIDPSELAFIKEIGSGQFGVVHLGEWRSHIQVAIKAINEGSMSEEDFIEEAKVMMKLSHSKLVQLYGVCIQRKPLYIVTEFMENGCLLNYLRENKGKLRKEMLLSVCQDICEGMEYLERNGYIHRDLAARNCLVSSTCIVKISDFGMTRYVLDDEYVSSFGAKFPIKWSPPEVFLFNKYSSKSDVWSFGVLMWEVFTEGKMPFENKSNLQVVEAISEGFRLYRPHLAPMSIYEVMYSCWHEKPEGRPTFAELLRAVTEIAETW
# UniProt Q9H093, sequence (whole entry, looked up): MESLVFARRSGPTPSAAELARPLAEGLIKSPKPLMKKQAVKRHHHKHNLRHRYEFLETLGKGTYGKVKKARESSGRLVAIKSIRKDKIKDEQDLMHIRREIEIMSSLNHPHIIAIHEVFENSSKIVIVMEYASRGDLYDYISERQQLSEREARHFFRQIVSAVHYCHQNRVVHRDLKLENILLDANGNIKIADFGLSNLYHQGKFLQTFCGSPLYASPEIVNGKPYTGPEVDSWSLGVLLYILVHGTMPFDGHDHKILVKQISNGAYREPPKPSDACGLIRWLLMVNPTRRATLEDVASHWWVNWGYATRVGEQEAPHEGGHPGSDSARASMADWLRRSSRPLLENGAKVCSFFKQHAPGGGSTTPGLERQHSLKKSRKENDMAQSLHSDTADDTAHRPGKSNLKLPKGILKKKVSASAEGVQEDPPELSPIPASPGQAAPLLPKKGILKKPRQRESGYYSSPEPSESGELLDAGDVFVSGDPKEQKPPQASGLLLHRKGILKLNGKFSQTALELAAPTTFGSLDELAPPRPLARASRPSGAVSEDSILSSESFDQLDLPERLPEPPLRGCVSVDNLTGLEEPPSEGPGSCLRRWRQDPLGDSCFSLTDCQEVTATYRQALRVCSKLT
# UniProt Q8IY84, sequence (whole entry, looked up): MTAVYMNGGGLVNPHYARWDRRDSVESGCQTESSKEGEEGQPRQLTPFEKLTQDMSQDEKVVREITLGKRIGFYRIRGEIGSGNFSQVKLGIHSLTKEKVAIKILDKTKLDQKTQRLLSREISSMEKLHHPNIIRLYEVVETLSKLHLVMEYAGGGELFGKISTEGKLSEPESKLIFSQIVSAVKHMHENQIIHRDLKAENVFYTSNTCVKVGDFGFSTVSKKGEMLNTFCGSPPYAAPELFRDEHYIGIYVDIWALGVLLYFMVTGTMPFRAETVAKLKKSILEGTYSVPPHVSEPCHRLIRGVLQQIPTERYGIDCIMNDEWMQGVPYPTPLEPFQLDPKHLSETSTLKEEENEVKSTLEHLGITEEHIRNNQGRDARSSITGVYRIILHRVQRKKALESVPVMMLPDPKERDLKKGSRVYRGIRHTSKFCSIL
# UniProt Q9NYL2, sequence (whole entry, looked up): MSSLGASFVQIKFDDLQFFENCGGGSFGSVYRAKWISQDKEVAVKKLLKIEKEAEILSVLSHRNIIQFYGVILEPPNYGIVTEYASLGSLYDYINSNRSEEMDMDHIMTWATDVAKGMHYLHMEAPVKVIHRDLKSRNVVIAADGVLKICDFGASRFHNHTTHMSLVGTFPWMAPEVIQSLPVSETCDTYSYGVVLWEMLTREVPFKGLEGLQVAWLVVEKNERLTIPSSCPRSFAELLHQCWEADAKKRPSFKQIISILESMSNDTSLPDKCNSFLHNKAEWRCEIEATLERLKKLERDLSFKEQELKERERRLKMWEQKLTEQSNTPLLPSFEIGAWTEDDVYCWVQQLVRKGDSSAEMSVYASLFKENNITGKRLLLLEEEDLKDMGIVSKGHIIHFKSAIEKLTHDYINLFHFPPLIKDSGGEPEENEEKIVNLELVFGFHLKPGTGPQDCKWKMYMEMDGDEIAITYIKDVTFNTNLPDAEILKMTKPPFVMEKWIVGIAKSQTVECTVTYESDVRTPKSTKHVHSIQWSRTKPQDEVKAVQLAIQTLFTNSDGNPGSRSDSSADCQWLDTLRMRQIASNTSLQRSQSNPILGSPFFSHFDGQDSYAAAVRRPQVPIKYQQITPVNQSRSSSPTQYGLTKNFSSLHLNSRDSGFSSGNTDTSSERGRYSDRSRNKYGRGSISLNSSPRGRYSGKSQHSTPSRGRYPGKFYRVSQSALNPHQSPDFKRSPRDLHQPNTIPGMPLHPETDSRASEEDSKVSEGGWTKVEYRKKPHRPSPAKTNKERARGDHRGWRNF
# UniProt Q15139, sequence (whole entry, looked up): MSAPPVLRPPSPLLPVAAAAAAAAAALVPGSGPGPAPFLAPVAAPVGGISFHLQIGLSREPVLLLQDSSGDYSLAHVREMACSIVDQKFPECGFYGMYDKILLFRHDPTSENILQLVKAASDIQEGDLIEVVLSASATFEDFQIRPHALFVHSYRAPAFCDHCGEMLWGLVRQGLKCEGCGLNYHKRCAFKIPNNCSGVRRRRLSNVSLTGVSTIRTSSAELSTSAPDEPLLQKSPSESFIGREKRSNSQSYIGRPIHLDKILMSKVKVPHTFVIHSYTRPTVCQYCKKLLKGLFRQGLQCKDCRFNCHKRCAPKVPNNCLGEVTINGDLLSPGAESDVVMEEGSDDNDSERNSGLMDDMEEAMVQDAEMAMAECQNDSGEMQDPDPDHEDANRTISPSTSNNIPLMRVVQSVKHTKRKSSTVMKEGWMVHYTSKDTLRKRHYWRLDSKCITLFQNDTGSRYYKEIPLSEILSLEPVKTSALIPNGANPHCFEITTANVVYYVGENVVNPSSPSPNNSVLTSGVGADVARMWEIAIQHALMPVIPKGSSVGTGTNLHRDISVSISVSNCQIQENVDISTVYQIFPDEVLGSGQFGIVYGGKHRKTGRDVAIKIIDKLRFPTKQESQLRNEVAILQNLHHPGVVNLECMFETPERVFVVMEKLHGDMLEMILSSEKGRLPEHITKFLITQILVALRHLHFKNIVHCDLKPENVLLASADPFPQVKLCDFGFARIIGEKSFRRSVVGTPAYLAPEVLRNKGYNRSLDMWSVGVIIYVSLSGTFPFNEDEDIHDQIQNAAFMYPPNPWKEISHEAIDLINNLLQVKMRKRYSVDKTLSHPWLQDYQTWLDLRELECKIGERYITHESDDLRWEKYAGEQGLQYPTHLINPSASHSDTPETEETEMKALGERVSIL
# UniProt Q15759, sequence (whole entry, looked up): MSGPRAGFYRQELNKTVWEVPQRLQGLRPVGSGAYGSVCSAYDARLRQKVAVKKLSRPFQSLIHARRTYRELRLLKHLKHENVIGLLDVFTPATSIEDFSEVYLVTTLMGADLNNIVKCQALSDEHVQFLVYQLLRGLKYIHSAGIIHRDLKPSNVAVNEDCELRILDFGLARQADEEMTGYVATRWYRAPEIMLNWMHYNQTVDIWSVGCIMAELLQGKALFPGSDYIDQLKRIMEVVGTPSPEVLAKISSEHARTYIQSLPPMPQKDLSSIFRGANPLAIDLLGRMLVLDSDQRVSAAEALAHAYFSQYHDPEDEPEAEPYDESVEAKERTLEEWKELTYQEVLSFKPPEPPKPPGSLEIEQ

# Set 1
# Structure (SMILES): CC(C)n1cnc(-c2ccc(F)cc2)c1-c1ncc(C(=O)Nc2ccc(N3CCN(C)CC3)cc2)[nH]1
# Method: phase 2a trial
# Host: idiopathic pulmonary fibrosis patients
setting,patients with hypophosphataemia [%]
"all arms pooled, grade 5 emergent event",0
"30 mg once daily, grade 2 emergent event",0
"30 mg once daily, grade 5 emergent event",0
"60 mg once daily, grade 3 emergent event",0

# Set 2
# Cell line: mouse MPNST tumor cells
# Method: high-content nuclear imaging
# Refers to: cell number
# Concentration: 10 µM
# Time: 12 h
# Notes: mean of 2 replicates
# Baseline: plate mean
# Direction: higher = more cells
SMILES,nuclei count [z-score]
O=C(O)Cc1cccc(OCCCN(Cc2cccc(C(F)(F)F)c2Cl)CC(c2ccccc2)c2ccccc2)c1,0.685
CCCCC(F)(F)[C@@]1(O)CC[C@H]2[C@@H](CC(=O)[C@@H]2CCCCCCC(=O)O)O1,0.514
O=C(NO)c1ccc2[nH]c(=O)c(CCCc3ccccc3)nc2c1,1.06
CCCCN(CC)c1nc(C)nc2c1c(C)c(C)n2-c1c(C)cc(C)cc1C,1.58
COc1ccc2nccc(NC(=O)c3cc([N+](=O)[O-])ccc3Cl)c2c1,-5.3
N=C(N)NCCC[C@H](NC(=O)CC1(CC(=O)N2CCN(C3c4ccccc4NC(=O)c4ccccc43)CC2)CCCC1)C(=O)NCCn1c(=O)n(-c2ccccc2)n(-c2ccccc2)c1=O (stereo partly drawn),2.02
CCOc1ccc(-n2c(C(C)N(Cc3cccnc3)C(=O)Cc3ccc(F)c(C(F)(F)F)c3)nc3ncccc3c2=O)cc1 (stereo not drawn),1.66

# Set 3
# SMILES: COc1cc(C(=O)N2CCC(N3CCN(C)CC3)CC2)ccc1Nc1ncc2c(n1)N(C)c1ccccc1C(=O)N2C
# Read-out: probe labelling
target,test,system,setting,inhibition [%]
TRKB (mouse),"inhibitor, KiNativ ActivX ADP probe",mouse brain lysate,"0.1 µM, Lys1 site peptide",-0.2
WNK1/WNK2 (mouse),"inhibitor, KiNativ ActivX ATP probe",mouse brain lysate,"0.1 µM, ATP loop peptide GSFkTVYK",8.4
MARK1 (mouse),KiNativ ADP probe,mouse brain lysate,"0.1 µM, LYS1 labelled site",2.8
MAPKAPK2 (human),KiNativ ADP probe,human PBMC lysate,"concentration not given, LYS1 labelled site",4.6
MLK1 (mouse),KiNativ ADP probe,mouse brain lysate,"0.1 µM, LYS1 labelled site",-11.6

# Set 4
# Structure (SMILES): C[C@H](c1cccc(C#N)c1)n1cc(Cl)cc(C(N)=O)c1=N
# Read-out: cell-free assay
# Method: competition with immobilised ligand
# Concentration: 1 µM
target,remaining binding [%]
"DYRK2 (Homo sapiens, UniProt Q92630)",84
"Myosin-IIIa (MYO3A, Homo sapiens, UniProt Q8NEV4)",100
"CDK17 (Homo sapiens, UniProt Q00537)",91
"MYLK2 (Homo sapiens, UniProt Q9H1R3)",100
"MAPK11 (Homo sapiens, UniProt Q15759)",100
"NIM1K (Homo sapiens, UniProt Q8IY84)",84
"SLK (Homo sapiens, UniProt Q9H2G2)",100
"MAP3K20 (Homo sapiens, UniProt Q9NYL2)",86
"KIT (Homo sapiens, UniProt P10721, V559D)",83
"RET (Homo sapiens, UniProt P07949, V804M)",100
"NUAK2 (Homo sapiens, UniProt Q9H093)",91
"PIKFYVE (Homo sapiens, UniProt Q9Y2I7)",91
"PRKD1 (Homo sapiens, UniProt Q15139)",100
"TXK (Homo sapiens, UniProt P42681)",85
"STK39 (Homo sapiens, UniProt Q9UEW8)",100
"NUAK1 (Homo sapiens, UniProt O60285)",57

# Single results of other studies
SMILES,cell line,test,setting,measurement,result
Cc1cc2c(C(N)=O)c(N)n(-c3c(C)ccc(O)c3C)c2nc1C,"biomarker-positive cells (CCNE1 amp, FBXW7 mut, PPP2R1A loss)",cell growth,"168 h, average",IC50,186 nM
